Assay results collected from several papers.
Lines come from different studies, so protocols differ. Numbers after ± are the reported error.
Cell line: U-87 MG

Molecule	test	system	conditions	scale	measurement	value
O=NN(CCCl)C(=O)NCCCl	cell growth or viability, WST-1		500 µM, 24 h		viability	17.7%
CC[C@@]1(O)C(=O)OCc2c1cc1n(c2=O)Cc2cc3c(CN(C)C)c(O)ccc3nc2-1	cell growth		4 h exposure, read 4 days later		IC50	15.1 µM
Clc1ccc(C2(c3ccc(-c4cn[nH]c4)cc3)CCNCC2)cc1	electrochemiluminescence immunoassay, item: p70S6K phospho-Thr421/Ser424		1 h		IC50	> 20 µM
CN1CCN(c2ccc(Nc3ncc4cc(C#N)c(=O)n(C5CCCC5)c4n3)cc2)CC1	cell growth or viability, SRB		72 h		IC50	3.4 µM
COc1cccc2c1C(=O)c1c(O)c3c(c(O)c1C2=O)C[C@@](O)(C(=O)CO)C[C@@H]3O[C@H]1C[C@H](N)[C@H](O)[C@H](C)O1	annexin V-PI flow cytometry		10 µM		late apoptotic cells	52.7%
CC(=O)c1c(C)c2cnc(Nc3ccc(N4CCNCC4)cn3)nc2n(C2CCCC2)c1=O	cell growth or viability		6 days		IC50	0.253 µM
Cc1nc(Nc2ncc(C(=O)Nc3c(C)cccc3Cl)s2)cc(N2CCN(CCO)CC2)n1	fibronectin Boyden chamber		100 nM, 6 h	reference: vehicle	cell invasion	15.4 ± 5.7%
ACGLSGLCVAK	annexin V-PI flow cytometry	peptide	10 µM		live cells	98.2%
